Measurements of several laboratories.
Numbered parts are unrelated; each lists some results of a single study. Substitutions count along the parent as printed.

Set 1 — target: CCNE1, cyclin fold, Cln2 fusion (human); technique: yeast growth competition, sequencing; medium: yeast; notes: strong parent motif; relative to: not given; direction: higher = stronger binding
Starting sequence: DBF4B docking peptide (human); LGYLYLLLTQSLW
Substitution | normalised enrichment score
LGYLYLLATQSLW [L8A] | 1.71
LGYLYLLLTASLW [Q10A] | 1.48
LGYLYLLLTQSAW [L12A] | 1.08
LGYLALLLTQSLW [Y5A] | 1.14
LGYLYLALTQSLW [L7A] | 1.1
LGYLYALLTQSLW [L6A] | 0.925

Set 2 — technique: RNA Bind-n-Seq; molecule type: RNA; medium: in vitro; concentration: not given; relative to: input RNA pool; direction: higher = stronger binding
Target: RING finger protein unkempt homolog, zinc fingers 1-6, GST-SBP tag (UNK, Homo sapiens, UniProt Q9C0B0, residues 30-357)
Notes: RNA with constant flanks, human and mouse sites, ends assumed
Shared flanks, not repeated: GGGAGUUCUACAGUCCGACGAUC … CAACAGAGGAUUGAGCAUCA
Construct (chain): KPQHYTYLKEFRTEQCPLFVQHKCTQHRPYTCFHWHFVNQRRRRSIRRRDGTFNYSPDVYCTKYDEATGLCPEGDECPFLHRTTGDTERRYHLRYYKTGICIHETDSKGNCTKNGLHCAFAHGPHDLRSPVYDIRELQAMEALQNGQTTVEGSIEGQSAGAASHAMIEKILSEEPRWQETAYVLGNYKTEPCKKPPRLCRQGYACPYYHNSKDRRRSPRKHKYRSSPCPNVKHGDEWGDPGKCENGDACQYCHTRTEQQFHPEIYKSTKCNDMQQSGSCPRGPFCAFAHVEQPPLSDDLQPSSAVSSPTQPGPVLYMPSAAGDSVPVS
Oligonucleotide | bound/input enrichment
GAGAGUGACAUGGCUCUAAGCCAGGGUCAGUGCAUUUUUCUCAACAGGCUAUUCAGAAAAAAAUACCUAUUUUUCAAAUAUUAGUUAGCCAAUAUGACAUUAAAUAGCUGUGUCAUUAAU | 14.2 ratio
UGCAUUAAUCCACCCUUGUUUGAAAUCCAUCAAGUCUUGUUGAGUCCAACCCAACAUCAUGUAGCACUUAUCGGAAGUAAAGGACUUAUGGCAUUAGAAUUACCUCAGAGGUGGGGGAAG | 0.963 ratio
UUCCCUGAAUUUCUGACAAUGAUGGCAAGAAAAAUGAAAGACACAGACAGUGAAGAAGAAAUUAGAGAAGCAUUCCGUGUGUUUGAUAAGGAUGGCAAUGGCUAUAUUAGUGCUGCAGAA | 0.586 ratio
AGUGCUGGGCAUGUGGAAGUAGCCAGAUUGCUGCUAGAAAAUGGAGCUGGCAUCAAUACGCAUUCCAAUGAAUUUAAAGAGAGUGCCCUUACAUUAGCUUGUUAUAAAGGACAUCUAGAG | 0.629 ratio
GAGGCCCUGAAGAUCUUCCAGAAAAUAAAGGAUGAAAAGAGCCCAGAGUGGUCCAAAUUUUUAGGAUUGAUCAAAAAAUUUGUCACUGAUUCCAAUGCAGUGGUUCAAUUGAAAGGAUUA | 0.354 ratio
UACGACAGGGUUUCCAAGAAGGAAGCCAAGCCGCAGAUUUGUCAGCUGCCAGAGAGUUCAGAUUCUUCACAUUCUGAAAGUGAAUCAGAGAGUGAACAAGAGCACGUUUCAGGGUACCAC | 0.0801 ratio
CCACAUUAUGUCAACGAUGGAAUUAAAAAUUUUACUCUUAAGUUUCUCCAGACAUUUUUUUUUUCUUUCCAUUGCUAAAAAAGCAAUCGAAGUUCCCCAUAUUCCCUGGCCCUCAGUGGU | 0.349 ratio
GAGUAGUUGAUAGUUGCACUCCCAGUCAUUGAAUUGCUUCUGUGUUUCCCUGUAGGUCCAUAGUAACCCUUUGUCAGUCUUACACAUUUGUAAGGACCCUGCAAGACAGCAACAACGACU | 0.373 ratio
ACAGGAUCUGAGUGGACCCGGACAGUACUCAGUCUGAACUCCCGCUCUGAGGCGGAAUCCAUGCCCCCGCCCAGAACCAGUGCCUCUUCGGUGAGUUUGCUGUCUGUGCUGAGACAGCAG | 0.0879 ratio
AACAUUAGAAGACAGUGGGAAGAUGAUCCUCCAAAUGUACACAUUAUUGGAAAUCUACCUUUUAGUGUUUCAACUCCACUGAUUAUCAAGUGGCUUGAAAAUAUUUCUCUUAAAGAUGGC | 3.38 ratio
AAGAUCUCCAUGGAUGUGUUUGUGAGAAAGUUCCAGCCAGAAAGGUACAAACUUUGGAAAGCUGGGAAGGACAACACAGUUAUUGACCAUACUCUGCCCACGCCAGAAGCAGCUGAGUUU | 0.099 ratio

Set 3 — target: BATF2, bZIP domain (human); technique: DHFR protein complementation; medium: yeast; relative to: wild-type JUN-FOS pair; direction: higher = stronger binding
Notes: single substitutions, most at no-binding floor
Starting sequence: JUN, bZIP domain (human); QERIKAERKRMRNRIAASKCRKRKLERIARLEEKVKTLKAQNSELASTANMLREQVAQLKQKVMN; partner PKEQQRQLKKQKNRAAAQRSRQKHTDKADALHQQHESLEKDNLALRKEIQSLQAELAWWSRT
Substitution | binding fitness
M51R | -0.181 natural log
E44L | -0.518 natural log
I28T | -0.472 natural log
K36Y | -0.538 natural log
S47D | -0.118 natural log
S47L | -0.289 natural log
R53T | -1.15 natural log
L45D | -1.32 natural log
V56T | -1.14 natural log
K39L | -0.411 natural log
V35A | -1.11 natural log
E44Q | -0.306 natural log
A40E | -0.242 natural log

Set 4 — technique: competition protein-binding microarray; molecule type: double-stranded DNA, one strand shown; medium: in vitro; concentration: 2 µM; added: Pho4 competitor, 0.05 µM; direction: higher = stronger binding; shared flanks, not repeated: … GTCTTGATTCGCTTGACGCTGCTG
Target: Centromere-binding protein 1, full length, His-tagged (CBF1, Saccharomyces cerevisiae, UniProt P17106, residues 1-351)
UniProt P17106, sequence (whole entry, looked up): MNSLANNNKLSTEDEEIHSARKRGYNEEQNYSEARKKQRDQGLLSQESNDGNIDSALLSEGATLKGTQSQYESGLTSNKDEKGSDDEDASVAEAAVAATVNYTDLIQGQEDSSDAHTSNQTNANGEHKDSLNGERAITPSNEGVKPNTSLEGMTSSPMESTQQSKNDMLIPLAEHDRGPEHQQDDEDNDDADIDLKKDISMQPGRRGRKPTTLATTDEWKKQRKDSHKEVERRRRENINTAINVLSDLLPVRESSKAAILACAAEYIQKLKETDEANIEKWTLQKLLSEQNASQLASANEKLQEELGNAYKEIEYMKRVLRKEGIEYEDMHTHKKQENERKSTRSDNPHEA
Notes: whole 60-bp probe, lowest competitor level
Oligonucleotide | fluorescence intensity
TGCCATTGATCCAGTCTCGTGACTCGGACAGAACTG | 1320 a.u.
CTAACGAAGGTTTGGGCGGTGGGTGACAAGCCAAGT | 60.5 a.u.
AGCTGGGAAAACTTCCATGTGGTCTTCGTCCTCAAC | 75.3 a.u.
CGTCCTAGTGATTGTCAGGTGGGTGCCATGAGGAAG | 166 a.u.
GACTTGACAGAGTGGCACGAGGCTCTGCCCATCTGT | 81.5 a.u.
TAACGACTGGCACCACCCGTGATGGAGAAGAACACA | 112 a.u.
AAATTACTAAGTTGCCGTGTGGGTGACGCCGTATGA | 67 a.u.
GAGGTTTACTCCAGTTTCGTGGGACTGTGCATTTTC | 58.4 a.u.
GGCATATCAATATGACATGTGATATCACTCCGCGGC | 738 a.u.
GGGAGGGAAGACTGGAACGTGCAAAGAAGCTATTCG | 99.3 a.u.
TGCGCAACAACTTTTCACGTGATGTTATGTCTAGAA | 3490 a.u.
GTCTTGTCTCATTGCTAAGTGGGTGTCCCCACTTCA | 86.7 a.u.
CCATCAATTTGGCTACACGTGTTGGTCTAGAACATG | 1440 a.u.
CTTTCCCGATCTTGTACTGTGGGTGTAGCACATTTG | 63 a.u.
TGCGCAACAACTTGAAGAGTGGGTGTATGTCTAGAA | 79.9 a.u.
CGACACCGATAGCGTCATGTGTAGCAACCCAAATAA | 146 a.u.
AAGTGATGAGAATCGCACGTCTAGATAATGGCAGTA | 70.8 a.u.
CAGAAGGCAGACCATCACGATTGATAAAGATTAAGC | 76.8 a.u.
ACCTACGAGTCCGGCCACGTGCGATCCGTAGCCATT | 682 a.u.
TCCCTGGGTCCCGGCCACGTGTAACGCTTCAACAAC | 720 a.u.
GTCTCTCGTCCCATGCTCGTGCGATTTGTGCATTCA | 105 a.u.
CGTCCTAGTGATTGTCACGCTACTTCCATGAGGAAG | 239 a.u.
GATAGACGAGAAGGACACATGGAGGATTTGACAGGC | 76.5 a.u.
GAGCCCCGCCCCTGCCACGTGGGCTTGTTTGGGTCT | 821 a.u.
CTTCTGTAAATTTTTCACGTGCATTGACGCGCCCCG | 879 a.u.

Set 5 — technique: universal PBM; molecule type: double-stranded DNA, one strand shown; medium: in vitro; concentration: 600 nM; direction: higher = stronger binding
Target: Sal-like protein 4, full length isoform A (SALL4, Homo sapiens, UniProt Q9UJQ4, residues 1-1053)
UniProt Q9UJQ4, sequence (whole entry, looked up): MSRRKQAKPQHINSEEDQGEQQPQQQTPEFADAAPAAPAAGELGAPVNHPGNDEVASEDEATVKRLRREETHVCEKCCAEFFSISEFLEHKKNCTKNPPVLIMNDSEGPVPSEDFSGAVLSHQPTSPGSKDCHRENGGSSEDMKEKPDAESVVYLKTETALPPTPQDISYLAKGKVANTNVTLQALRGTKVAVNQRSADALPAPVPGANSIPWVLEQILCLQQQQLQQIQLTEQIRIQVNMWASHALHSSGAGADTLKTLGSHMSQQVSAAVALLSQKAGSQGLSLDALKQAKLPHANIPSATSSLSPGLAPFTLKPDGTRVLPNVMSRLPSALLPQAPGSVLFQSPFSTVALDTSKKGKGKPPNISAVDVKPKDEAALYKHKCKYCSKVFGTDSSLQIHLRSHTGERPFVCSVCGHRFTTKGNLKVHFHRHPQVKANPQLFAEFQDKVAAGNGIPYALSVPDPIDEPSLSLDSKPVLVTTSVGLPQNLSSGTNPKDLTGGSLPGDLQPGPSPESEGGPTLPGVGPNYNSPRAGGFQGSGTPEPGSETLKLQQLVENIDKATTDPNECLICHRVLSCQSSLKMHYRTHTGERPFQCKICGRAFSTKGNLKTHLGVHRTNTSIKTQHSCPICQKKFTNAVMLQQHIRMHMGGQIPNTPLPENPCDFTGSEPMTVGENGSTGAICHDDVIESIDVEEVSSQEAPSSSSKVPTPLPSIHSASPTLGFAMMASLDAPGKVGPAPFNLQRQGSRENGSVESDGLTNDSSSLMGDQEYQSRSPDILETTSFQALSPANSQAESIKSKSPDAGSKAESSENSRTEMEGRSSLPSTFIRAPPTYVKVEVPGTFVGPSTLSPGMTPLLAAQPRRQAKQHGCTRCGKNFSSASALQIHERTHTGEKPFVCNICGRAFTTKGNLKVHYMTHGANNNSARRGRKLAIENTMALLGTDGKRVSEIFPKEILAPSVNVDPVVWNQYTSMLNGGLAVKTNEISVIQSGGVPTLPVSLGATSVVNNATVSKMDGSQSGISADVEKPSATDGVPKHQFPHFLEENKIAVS
Notes: 8-mer, flanks averaged, mean of replicates
Oligonucleotide | E-score
AGTGGTAC | -0.163
AAAGAGCT | -0.0691
CGATTGGA | -0.0675
CCACCAGG | -0.381
GCACGGGC | -0.365
AGTGATCC | -0.0928
CGTCCCGA | -0.156
AACGGGCT | -0.257
ACTAGCAT | -0.00787
GCCATGTA | 0.0453
CTTAAGGC | -0.153
ATGCTTAC | 0.054
TAAAATAA | 0.33
ATGAAGGC | 0.117
AGACTAAA | 0.102
CGACTTTC | -0.0451
CTGCACTC | -0.17
CTGGACAG | -0.165
AACCTCTA | 0.116
CTCTCCAG | -0.285
ACTCGGCG | -0.282
AACTCAAA | 0.177
ATAACGTG | 0.217
ACGACACG | -0.0798
CTCCGGCA | -0.213

Set 6 — technique: protein-binding microarray; molecule type: double-stranded DNA, one strand shown; medium: in vitro; concentration: 2200 nM top; notes: 60-bp whole probe; added: salmon DNA 0.4 mg/ml; relative to: random background probes; direction: higher = stronger binding; shared flanks, not repeated: GCCTAGCAC … GTCTTGATTCGCTTGACGCTGCTG
Target: Interferon regulatory factor 7, full length, phosphomimetic (IRF7, Homo sapiens, UniProt Q92985, residues 1-503, S471D/S472D/S475D/S476D/S477D/S483D/S484D/S487D)
UniProt Q92985, sequence (whole entry, unmodified, looked up): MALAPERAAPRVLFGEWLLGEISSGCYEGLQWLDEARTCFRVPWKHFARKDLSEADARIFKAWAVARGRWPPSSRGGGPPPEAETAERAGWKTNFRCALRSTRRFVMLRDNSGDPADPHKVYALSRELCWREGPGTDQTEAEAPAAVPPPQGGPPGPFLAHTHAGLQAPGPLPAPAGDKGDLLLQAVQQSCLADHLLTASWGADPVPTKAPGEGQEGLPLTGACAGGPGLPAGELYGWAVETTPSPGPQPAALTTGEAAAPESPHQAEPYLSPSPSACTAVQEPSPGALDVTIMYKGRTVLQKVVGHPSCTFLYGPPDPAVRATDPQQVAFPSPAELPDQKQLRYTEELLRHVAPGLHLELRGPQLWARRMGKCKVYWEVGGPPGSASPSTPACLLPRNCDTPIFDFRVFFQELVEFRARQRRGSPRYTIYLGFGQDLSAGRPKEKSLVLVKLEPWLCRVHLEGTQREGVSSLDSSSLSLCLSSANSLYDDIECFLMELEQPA
Oligonucleotide | fitted relative affinity [z-score]
GATAATTTATAAATAAAAAAGTGCTAG | -1.45
TCAAGTTTCTATTTTCTACTGTGCTAG | 5.01
TCAAGACTCATAATGGCACTGTGCTAG | -0.121
GACGGTATCGGTCTGGGGACGTGCTAG | -0.0505
TTTGGTATCCTACTGCTTTAGTGCTAG | 1.34
TTAGGACTGGGACTGGGATAGTGCTAG | -0.913
TTAGGACTGGACACTGGGGTAGTGCTA | -0.709
TTAGGTTCCGGTATCGGTTAGTGCTAG | 1.79
GACGGACTGAGTCTCGAGACGTGCTAG | -0.376
TTAGGTACCGGGACTGGGTTAGTGCTA | -0.692
TTAGGACTGCCACTGCTTTAGTGCTAG | -0.196
TTCACTTTCCAAAACATGAAGTGCTAG | 2.3
TTAGATATCGGACTGGGTTAGTGCTAG | 0.129
GTGATTTCAGTTTTCTTTTCGTGCTAG | 5.84
TCATTTCTAATTTACTTACTGTGCTAG | 1.85
GACGATCCCAGACTGGAGACGTGCTAG | -0.365
GAAGGTTTCGGGACTGGGGACGTGCTA | 2.98
GACTATATCGGGTATCGAGACGTGCTA | 0.32
ACCTATAGGTTGTTTCTAATAGTGCTA | 0.462

Set 7 — technique: protein binding microarray; molecule type: double-stranded DNA, one strand shown; medium: in vitro; concentration: not given; relative to: not given; direction: higher = stronger binding
Target: Histone acetyltransferase KAT6A, winged helix 2, GST fusion (KAT6A, Homo sapiens, UniProt Q92794, residues 85-181)
Notes: 8-mer, flanks averaged, mean of 2 arrays, mostly near background
Target sequence (chain): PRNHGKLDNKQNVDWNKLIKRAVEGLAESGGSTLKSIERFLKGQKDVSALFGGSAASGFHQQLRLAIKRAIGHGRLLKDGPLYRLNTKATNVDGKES
Oligonucleotide | E-score
ACCTGATG | -0.148
ATTGGCAC | 0.0267
ATACGTCG | -0.146
AGCTTTAA | -0.0204
CACTTCAC | 0.0126
CGCTCGAG | 0.168
CCTATTTA | -0.133
GAGTCACA | -0.00967
GACCGGAA | -0.11
GATGGTAC | -0.13
ACCCGTCG | 0.0839
TGATGGCA | -0.131
GATTGTCC | 0.0118
AGCGGCTG | 0.0383
CGGTGCGC | 0.205
AAGGCTGA | -0.0548
CAATCAGC | 0.00842
CTCTTACA | -0.0452
AACTGAAA | -0.0762
AGGACGTC | -0.218
GGTCAACC | 0.184
AAAAGAAC | -0.107
GCTGTGAA | -0.0397
ACTGGTAT | 0.0577
ACGTGGAG | -0.0897

Other studies, line by line
Molecule | target | assay | test system | conditions | scale | quantity | result
PhoQ, residues 284 288 289 292 302 303 NLALSC | PhoP, residues 12 14 15 18 19 LWHSL (Escherichia coli, UniProt P23836) | Sort-seq, item: YFP reporter | E. coli | PhoQ-PhoP variant library, added: 10 µM Mg2+ | relative to: high Mg2+ state, higher = stronger signaling | fold induction | 3.43

Some of these lines once more (set 5):
Oligonucleotide | E-score
AACGGGCT | -0.257
ATAACGTG | 0.217
AGACTAAA | 0.102
AGTGATCC | -0.0928
CGACTTTC | -0.0451
ACGACACG | -0.0798
CTGGACAG | -0.165
CGTCCCGA | -0.156
ACTCGGCG | -0.282
TAAAATAA | 0.33
AGTGGTAC | -0.163
AACCTCTA | 0.116
ACTAGCAT | -0.00787
ATGAAGGC | 0.117
CCACCAGG | -0.381
CTCTCCAG | -0.285
GCACGGGC | -0.365
